Measured values collected from several papers.
A part holds a random share of what one study measured. Substitutions count along the parent as printed.

Block 1 — target: CCNE2, cyclin fold, Cln2 fusion (human); method: yeast growth competition, sequencing; matrix: yeast; notes: strong parent motif; reference: not given; direction: higher = stronger binding
Starting sequence: CDC25A docking peptide (human); PPHRRRLLFACSP
| Variant | normalised enrichment score |
| --- | --- |
| PPHRAAAAFACSP [R5A R6A L7A L8A] | -0.0165 |
| PPHRRRLLFNCSP [A10N] | 2.54 |
| IPHRRRLLFACSP [P1I] | 1.71 |
| PPHRRRLLQACSP [F9Q] | 0.441 |
| PPHRRRLLFGCSP [A10G] | 2.47 |
| PPHRRQLLFACSP [R6Q] | 1.7 |
| PPHRRRNLFACSP [L7N] | 0.673 |
| PPHRRPLLFACSP [R6P] | -0.436 |
| PPHRRRLLMACSP [F9M] | 1.17 |

Block 2 — method: RNA Bind-n-Seq; form: RNA; matrix: in vitro; tested at: 365 nM; reference: no-protein control; direction: higher = stronger binding
Target: RNA binding protein fox-1 homolog 2, RRM domain, GST-SBP tag (RBFOX2, Homo sapiens, UniProt O43251-10, residues 100-194)
Notes: natural RNA segment, single round, ends assumed
Target sequence (chain): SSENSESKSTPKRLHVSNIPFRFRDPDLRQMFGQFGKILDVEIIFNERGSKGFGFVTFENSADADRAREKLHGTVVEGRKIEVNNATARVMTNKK
| Sequence | RBNS enrichment (R) |
| --- | --- |
| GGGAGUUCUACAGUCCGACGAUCGUUGGUGGGAGGGUUGGCACCUGCACACUCCAUCUCCUGCUCACCACCUGCCUCUAAUCUGAGCUGCAGCCUGGCUGGUCCUCCCAUUUCUAAAGCUGAAUGUCAAACAGUGGAAUUCUCGGGUGCCAA | 2.17 |
| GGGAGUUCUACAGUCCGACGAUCUGCACGGUGCAAGCUGUUGGUGGAUCUACCAUUCUGGGGUCUGGAGGACGGUGGCCCUCUUCUCACAGCUCCACUAGGCAGUGCCCCAGUAGGGACUCUGUGUGGGGGCUUGGAAUUCUCGGGUGCCAA | 0.238 |
| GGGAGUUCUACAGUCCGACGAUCCGUGUAGUUGGUGUGAGUAUUCUGUGACACAAGUGACGACAGGCUCAGUGACUGCCUGUACCUGUGCAACCCUCGCUUGCUCCUUGGAGAACCUGACAGGACGCUGAAGAUGGAAUUCUCGGGUGCCAA | 0.393 |
| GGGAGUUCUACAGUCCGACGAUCUACUGAUCCCCCAUCUACUAUCCCCAGUAUGUAAUGGCUGAAUUAAUAUGUAAUCAACUGCAUUGUAUCUAAAGCCUUAGAACUAGUCAGGUGCUCCCUCCACCCAAUACUGGAAUUCUCGGGUGCCAA | 0.417 |
| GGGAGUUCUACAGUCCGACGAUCGAAGAAAACAAUUUUUUAAAAAUUCUCAUUACAUAGACGCACAAGAAUAUGUCACAUAAAGAAAAUGUGUUUAGAAUACUGGUUUUCUAUUUACGCAUGAUAUUUUCCUAUGGAAUUCUCGGGUGCCAA | 4.66 |
| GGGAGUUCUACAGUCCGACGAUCAGCUGGAUUAUAUAUUUCCCAGACUUCAAACCCUAGCAGAAGCUAAGGCUUGUGAUUUGACCUGAGACAUUUGUUUCAGGUAAUCGUGUAGAAUGAAGUAUCUUAGUUUAUGGAAUUCUCGGGUGCCAA | 0.277 |
| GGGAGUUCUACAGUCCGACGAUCUUUCGGUCAGGCCAUCUCCAGCAGCAUGUCUCUGCUGUGUGGAUGGAGGCCAAGGUCAGAAAGAUGCCCCGAGAAGCUCCAGCUUUGCUUUCUGCCCAGCCCAUCUUGCCUGGAAUUCUCGGGUGCCAA | 4.81 |
| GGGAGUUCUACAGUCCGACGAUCCUGACAGCUCUAUCCCAUCCCAGUCCUUGUCCCUGUCUGUUGACUCUGCUUUACCUUCUUAAGCCACCUAAUUGUUGGCCCCACUACGGGUAGCCAGAGGCUUUGAGCCUUGGAAUUCUCGGGUGCCAA | 0.816 |
| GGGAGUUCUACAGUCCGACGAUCUUCGUUAUUGCCUUUUUUGAGAUGUAUGUAUCUGUAUCUACCUAUAUCUAUAUGUGUGUAUACAUAUAUAAUAUAUACACACAGAUACAAGUGUACACACACACACCACAUGGAAUUCUCGGGUGCCAA | 0.352 |
| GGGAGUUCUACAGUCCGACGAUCUAGGUUGCUUAAAAGGGACAGUAUUCUCAGUGCUCUCCUACCCCACCUCAUGCCUGGCCCCCCUCCAGGCAUGCUGGCCUCCCAAUAAAGCUGGACAAGAAGCUGCUAUGUGGAAUUCUCGGGUGCCAA | 0.415 |
| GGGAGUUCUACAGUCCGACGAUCUUUUUUGGCUAUAAAUUCGUACUUGAUAAGCUAUGUUAUUUCUUUGUGUAAUUUAAUAGUAGCAUUCUGGAGUAGAUUCUUUUUUUGUAUUCUGGCCUUGGAAUACUUUAUGGAAUUCUCGGGUGCCAA | 1.24 |
| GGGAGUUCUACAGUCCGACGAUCUUCCUAAAAGUGAGCCACUAUCAGAUUUGCACAUCAGGAGAAAAGAAAUAGGGUUACGUCCAUUAGGAAAAUCCCAGUUUGCAGGAGUGCAAUCACAUCAAAAAAACAACUGGAAUUCUCGGGUGCCAA | 0.489 |

Block 3 — method: protein-binding microarray; form: double-stranded DNA, one strand shown; matrix: in vitro; tested at: 2540 nM top; notes: 60-bp whole probe; with: salmon DNA 0.4 mg/ml; reference: random background probes; direction: higher = stronger binding; all sequences stand within: GCCTAGCAC … GTCTTGATTCGCTTGACGCTGCTG
Target: Interferon regulatory factor 3, full length, phosphomimetic (IRF3, Homo sapiens, UniProt Q14653, residues 1-427, S386D/S396D/S398D/S402D/T404D/S405D)
Target sequence (chain): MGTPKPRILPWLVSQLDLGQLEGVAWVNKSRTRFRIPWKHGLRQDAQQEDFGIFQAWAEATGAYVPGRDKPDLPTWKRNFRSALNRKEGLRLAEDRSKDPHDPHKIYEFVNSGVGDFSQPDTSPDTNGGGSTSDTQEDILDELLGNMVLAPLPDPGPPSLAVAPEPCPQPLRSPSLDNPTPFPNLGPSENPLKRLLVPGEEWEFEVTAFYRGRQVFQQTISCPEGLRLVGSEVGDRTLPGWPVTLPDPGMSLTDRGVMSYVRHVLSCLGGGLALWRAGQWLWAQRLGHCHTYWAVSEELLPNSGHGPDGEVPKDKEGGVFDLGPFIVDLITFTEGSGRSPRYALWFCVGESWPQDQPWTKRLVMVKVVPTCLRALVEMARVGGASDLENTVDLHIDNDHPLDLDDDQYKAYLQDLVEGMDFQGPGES
| Sequence | fitted relative affinity |
| --- | --- |
| TTAGAACTGAGTATCGATTAGTGCTAG | 0.254 z-score |
| TTAGGACTGGGGACTGGGTGAGTGCTA | -1.07 z-score |
| GACGATTTCGACTATCGGGACGTGCTA | 1.16 z-score |
| TTAGGTATCGTTTTCCTTTAGTGCTAG | 5.96 z-score |
| TTCCCTTTCTCAACCTCCAGGTGCTAG | 8.02 z-score |
| TTAGCTTTCGGGACTGGGTTAGTGCTA | 1.37 z-score |
| TTAGGTATCGGTCTCGGTTAGTGCTAG | 4.43 z-score |
| GACGATACCGGGACTGGAGACGTGCTA | -0.271 z-score |
| TAGTTTATACTCTAGATGATGTGCTAG | 0.144 z-score |
| GACGAACTGACACTGGAGACGTGCTAG | -0.0239 z-score |
| GACGGTATTGGTCTCGGGACGTGCTAG | 0.748 z-score |
| TTAGATATCAGTACCGATTAGTGCTAG | 1.16 z-score |

Other studies, line by line
| Substance | target | assay | system | conditions | how to read | measurement | value |
| --- | --- | --- | --- | --- | --- | --- | --- |
| PhoQ, residues 284 288 289 292 302 303 SCEHLI | PhoP, residues 12 14 15 18 19 STHWV (Escherichia coli, UniProt P23836) | Sort-seq, refers to: YFP reporter | E. coli | PhoQ-PhoP variant library, with: 10 µM Mg2+ | reference: high Mg2+ state, higher = stronger signaling | fold induction | 0.717 |
